Published values from different studies.
Each numbered part is a random draw from the data of one study; scales do not carry over between parts. Positions count from the first letter of the parent shown.

Series 1
Molecule: PhoQ, residues 284 288 289 292 302 303 SLANKL
Technique: Sort-seq
Refers to: YFP reporter
Matrix: E. coli
Setting: PhoQ-PhoP variant library
Added: 10 µM Mg2+
Reference: high Mg2+ state
Direction: higher = stronger signaling
target | fold induction
PhoP, residues 12 14 15 18 19 SHWTV (Escherichia coli, UniProt P23836) | 11.8
PhoP, residues 12 14 15 18 19 STHWV (Escherichia coli, UniProt P23836) | 2.17
PhoP, residues 12 14 15 18 19 QYCSL (Escherichia coli, UniProt P23836) | 5.23

Series 2
Target: RNA binding protein fox-1 homolog 2, RRM domain, GST-SBP tag (RBFOX2, Homo sapiens, UniProt O43251-10, residues 100-194)
Technique: RNA Bind-n-Seq
Form: RNA
Matrix: in vitro
Concentration: 365 nM
Setting: natural RNA segment, single round, ends assumed
Reference: no-protein control
Direction: higher = stronger binding
Shared flanks, not repeated: GGGAGUUCUACAGUCCGACGAUC … UGGAAUUCUCGGGUGCCAA
Residues (chain): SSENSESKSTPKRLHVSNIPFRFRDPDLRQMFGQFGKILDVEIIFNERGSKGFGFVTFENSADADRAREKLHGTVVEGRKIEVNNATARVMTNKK
Strand | RBNS enrichment (R)
ACCCAGAGACUUGGUCUCUGCAUGUGUGUAGAAGUAGUGGUGUGGGGAGGGAUGGGACUCACUCAGCCCUGUGAAUGUGUUCUAUGGCUGAGCAACAUCCCUAGCCUUCA | 2.59
UUCCCAGCCAUGUUGCUGCUUUUGGCAUGGUCGCUUCUCUGAGGUUCACCUAGGCUUUCACAGCAAAAGUUGGGUGGAAAGAGAAAUUUUUAUUUGUGAUGACACAAUAG | 0.25
CCUACCCAGGGUCACCCAACACACUCUGCCUUGAGCCUCUCCUCAGGGUCUAUUCCUUGCGUGGAUUAUGUGGCCGUAGCAUGUUACAGUUCAAACAUGUCUCCACUACC | 6.84
CUGCCUGGAGAAGAUGCAUGCCAGUGCUCCUGAAGCCAGGCUGCUUCUCUUAAGAGAGGCUGUGGGUAUGCUGGAGCUGGCCUUCCGGUCAGGCUCUGGGCAGCAGGUGU | 0.488
ACUUCACUAGAGCUAAGACACUGCUGGCAUUGUGGCCCCAUCCUUCCAAGACACAGGGAAGGAAGGCAGAGGCUCCUCAGGGCCUUAUGGUAGGCCUAGCAGGUAGAGCU | 0.465
AUGUAUUCAUUUGCAGUCUUUGUAUUUAAAAAAACUUUACUGUUAUGUUUGUAUAAUAGAACAUUAAUCAUUUAUUAUAACUCAGACAAGGUGUAAAUAAAUUCAUAAUU | 0.55
AUUUGAAAUAAUGCUGUCUGAAUGGCCAACAUCCCAAGAAUGUAUUAAAAACAGCAACCCUGCCUACCGUUUUGAUGACCUUUUUCCAUAUUAAACAAGUUGAGAACAAA | 0.79

Series 3
Target: CCNB1, cyclin fold, Cln2 fusion (human)
Technique: yeast growth competition, sequencing
Matrix: yeast
Setting: strong parent motif
Reference: not given
Direction: higher = stronger binding
Starting sequence: PKN2 docking peptide (human); VSAVRKLDFSDTM; partner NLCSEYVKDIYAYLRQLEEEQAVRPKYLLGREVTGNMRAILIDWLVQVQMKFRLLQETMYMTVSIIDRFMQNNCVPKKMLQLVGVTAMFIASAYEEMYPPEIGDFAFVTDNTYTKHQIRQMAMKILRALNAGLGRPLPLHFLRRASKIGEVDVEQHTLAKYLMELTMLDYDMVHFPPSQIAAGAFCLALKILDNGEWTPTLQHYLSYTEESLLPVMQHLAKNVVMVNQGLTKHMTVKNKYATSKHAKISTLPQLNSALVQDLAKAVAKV
Substitution | normalised enrichment score
S2K | 2.37
D11W | 1.14
F9G | 0.241
D8F | 1.86

Series 4
Target: Sal-like protein 4, full length isoform A (SALL4, Homo sapiens, UniProt Q9UJQ4, residues 1-1053)
UniProt Q9UJQ4, sequence (whole entry, looked up): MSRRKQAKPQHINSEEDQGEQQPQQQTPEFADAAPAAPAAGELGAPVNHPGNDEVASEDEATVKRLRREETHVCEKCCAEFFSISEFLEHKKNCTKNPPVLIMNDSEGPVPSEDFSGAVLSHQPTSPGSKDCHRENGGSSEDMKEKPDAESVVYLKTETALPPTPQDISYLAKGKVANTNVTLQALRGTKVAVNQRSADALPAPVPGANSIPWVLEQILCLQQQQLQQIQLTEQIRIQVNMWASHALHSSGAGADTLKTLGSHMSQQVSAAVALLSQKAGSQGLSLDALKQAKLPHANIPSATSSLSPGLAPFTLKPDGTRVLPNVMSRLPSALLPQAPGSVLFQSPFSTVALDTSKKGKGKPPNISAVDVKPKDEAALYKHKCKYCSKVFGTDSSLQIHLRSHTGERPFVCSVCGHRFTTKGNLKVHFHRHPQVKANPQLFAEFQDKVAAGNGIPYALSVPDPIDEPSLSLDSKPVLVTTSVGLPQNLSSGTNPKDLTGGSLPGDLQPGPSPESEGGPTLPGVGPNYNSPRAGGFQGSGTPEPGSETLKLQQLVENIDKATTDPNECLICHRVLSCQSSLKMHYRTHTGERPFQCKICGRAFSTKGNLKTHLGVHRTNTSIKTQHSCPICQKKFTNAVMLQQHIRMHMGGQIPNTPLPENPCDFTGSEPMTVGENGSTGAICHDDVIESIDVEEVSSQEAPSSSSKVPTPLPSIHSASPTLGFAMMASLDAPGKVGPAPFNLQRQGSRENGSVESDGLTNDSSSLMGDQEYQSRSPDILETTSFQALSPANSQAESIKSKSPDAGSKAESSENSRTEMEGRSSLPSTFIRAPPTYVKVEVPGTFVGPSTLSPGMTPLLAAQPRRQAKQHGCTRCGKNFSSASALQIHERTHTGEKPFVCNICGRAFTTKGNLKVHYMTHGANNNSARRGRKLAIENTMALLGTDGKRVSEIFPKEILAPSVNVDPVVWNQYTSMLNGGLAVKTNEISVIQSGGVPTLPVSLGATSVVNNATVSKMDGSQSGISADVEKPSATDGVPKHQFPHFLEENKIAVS
Technique: universal PBM
Form: double-stranded DNA, one strand shown
Matrix: in vitro
Concentration: 600 nM
Setting: 8-mer, flanks averaged, mean of replicates
Direction: higher = stronger binding
Strand | E-score
ACACCTGA | -0.0321
CAGGTGGG | -0.229
ACTCGGAT | 0.0804
CCGTCTCG | -0.165
AGACCAGC | -0.343
GATAGAGA | 0.0386
ACTCCGCA | -0.259

Excerpt of the above (series 4):
Strand | E-score
CAGGTGGG | -0.229
ACTCGGAT | 0.0804
CCGTCTCG | -0.165
